Measurements collected from several papers.
Every numbered part comes from another study and shows a few of its results, in no order. Several values in a cell are separate wells, animals, samples, runs or records.
Sequence of UniProt Q9HCP0 (whole entry, looked up): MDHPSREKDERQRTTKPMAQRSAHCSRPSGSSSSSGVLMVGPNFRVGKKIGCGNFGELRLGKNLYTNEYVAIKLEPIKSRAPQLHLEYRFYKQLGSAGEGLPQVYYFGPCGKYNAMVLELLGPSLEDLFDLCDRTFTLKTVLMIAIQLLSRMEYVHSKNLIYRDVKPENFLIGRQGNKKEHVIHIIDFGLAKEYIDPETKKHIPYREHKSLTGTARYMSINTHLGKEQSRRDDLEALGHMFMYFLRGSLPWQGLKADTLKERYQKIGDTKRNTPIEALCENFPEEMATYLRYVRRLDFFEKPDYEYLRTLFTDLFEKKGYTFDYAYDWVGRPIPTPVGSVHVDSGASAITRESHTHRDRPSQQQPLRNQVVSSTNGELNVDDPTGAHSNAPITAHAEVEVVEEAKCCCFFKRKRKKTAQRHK
Sequence of UniProt Q14289 (whole entry, looked up): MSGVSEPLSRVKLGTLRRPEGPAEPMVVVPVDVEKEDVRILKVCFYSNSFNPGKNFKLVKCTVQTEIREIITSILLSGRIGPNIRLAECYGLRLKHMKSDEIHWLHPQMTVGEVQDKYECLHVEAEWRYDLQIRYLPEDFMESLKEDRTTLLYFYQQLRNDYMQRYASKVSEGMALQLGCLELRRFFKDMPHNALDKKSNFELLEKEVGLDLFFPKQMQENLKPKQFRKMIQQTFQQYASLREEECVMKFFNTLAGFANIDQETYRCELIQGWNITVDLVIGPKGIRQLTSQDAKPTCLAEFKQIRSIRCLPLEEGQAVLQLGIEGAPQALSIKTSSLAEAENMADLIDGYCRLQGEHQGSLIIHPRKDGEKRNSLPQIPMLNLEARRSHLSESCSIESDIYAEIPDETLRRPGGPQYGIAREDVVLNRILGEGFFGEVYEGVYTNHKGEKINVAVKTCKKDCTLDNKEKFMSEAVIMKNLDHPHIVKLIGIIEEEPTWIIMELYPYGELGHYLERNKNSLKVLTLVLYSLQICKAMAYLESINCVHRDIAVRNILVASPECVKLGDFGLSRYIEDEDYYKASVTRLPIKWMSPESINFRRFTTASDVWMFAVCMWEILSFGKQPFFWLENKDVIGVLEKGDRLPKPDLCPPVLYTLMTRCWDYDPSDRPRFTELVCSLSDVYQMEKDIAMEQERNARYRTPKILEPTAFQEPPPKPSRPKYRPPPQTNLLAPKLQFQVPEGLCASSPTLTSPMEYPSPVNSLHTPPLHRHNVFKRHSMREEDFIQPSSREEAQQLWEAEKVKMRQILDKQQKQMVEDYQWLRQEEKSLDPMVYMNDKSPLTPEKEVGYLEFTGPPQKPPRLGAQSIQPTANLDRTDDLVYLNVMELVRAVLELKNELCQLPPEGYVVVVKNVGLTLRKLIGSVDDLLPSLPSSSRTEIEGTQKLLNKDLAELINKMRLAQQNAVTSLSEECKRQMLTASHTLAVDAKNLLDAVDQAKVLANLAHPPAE
Sequence of UniProt P31152 (whole entry, looked up): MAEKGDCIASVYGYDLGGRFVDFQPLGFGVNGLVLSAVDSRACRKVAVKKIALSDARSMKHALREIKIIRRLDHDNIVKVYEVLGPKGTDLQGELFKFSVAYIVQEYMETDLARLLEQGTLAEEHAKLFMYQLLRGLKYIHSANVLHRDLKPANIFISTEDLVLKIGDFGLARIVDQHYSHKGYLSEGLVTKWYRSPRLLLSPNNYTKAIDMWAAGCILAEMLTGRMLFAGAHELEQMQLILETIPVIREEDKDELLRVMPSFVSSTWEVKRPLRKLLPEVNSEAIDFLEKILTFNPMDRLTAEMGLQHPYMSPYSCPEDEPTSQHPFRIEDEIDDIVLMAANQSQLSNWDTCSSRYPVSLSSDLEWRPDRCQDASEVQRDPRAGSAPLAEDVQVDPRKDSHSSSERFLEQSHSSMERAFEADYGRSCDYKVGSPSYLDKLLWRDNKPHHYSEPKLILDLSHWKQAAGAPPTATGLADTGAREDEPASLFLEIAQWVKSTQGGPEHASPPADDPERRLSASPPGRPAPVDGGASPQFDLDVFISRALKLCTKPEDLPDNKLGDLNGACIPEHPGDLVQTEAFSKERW
Sequence of UniProt P42336 (whole entry, unmodified, looked up): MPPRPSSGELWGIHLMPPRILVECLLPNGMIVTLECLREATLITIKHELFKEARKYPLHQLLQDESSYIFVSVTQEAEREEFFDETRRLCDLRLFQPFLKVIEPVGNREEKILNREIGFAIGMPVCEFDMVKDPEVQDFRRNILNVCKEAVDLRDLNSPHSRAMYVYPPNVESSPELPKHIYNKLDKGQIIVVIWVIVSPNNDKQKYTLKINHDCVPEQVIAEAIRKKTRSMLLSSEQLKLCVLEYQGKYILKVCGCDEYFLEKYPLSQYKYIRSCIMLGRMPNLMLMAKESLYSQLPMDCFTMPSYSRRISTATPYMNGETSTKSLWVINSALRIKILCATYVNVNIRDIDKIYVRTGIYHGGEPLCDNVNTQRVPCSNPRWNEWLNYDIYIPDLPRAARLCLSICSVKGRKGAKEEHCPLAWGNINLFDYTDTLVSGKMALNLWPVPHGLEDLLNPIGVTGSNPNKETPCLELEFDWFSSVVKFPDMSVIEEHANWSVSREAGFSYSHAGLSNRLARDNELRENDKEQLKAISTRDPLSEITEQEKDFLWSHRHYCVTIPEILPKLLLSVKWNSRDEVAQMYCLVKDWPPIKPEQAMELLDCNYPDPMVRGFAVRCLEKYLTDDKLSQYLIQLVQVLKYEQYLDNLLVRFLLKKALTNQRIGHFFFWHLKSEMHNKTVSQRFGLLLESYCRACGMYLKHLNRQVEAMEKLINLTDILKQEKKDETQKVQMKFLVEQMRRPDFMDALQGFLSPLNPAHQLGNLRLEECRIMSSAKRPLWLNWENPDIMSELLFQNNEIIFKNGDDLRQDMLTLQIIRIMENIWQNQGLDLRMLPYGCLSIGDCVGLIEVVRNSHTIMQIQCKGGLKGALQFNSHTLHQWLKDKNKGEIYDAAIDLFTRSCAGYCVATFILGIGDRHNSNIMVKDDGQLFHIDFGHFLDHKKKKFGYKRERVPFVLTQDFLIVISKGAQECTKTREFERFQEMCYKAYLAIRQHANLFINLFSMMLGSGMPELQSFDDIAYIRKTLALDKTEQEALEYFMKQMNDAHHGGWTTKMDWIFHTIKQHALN
Sequence of UniProt Q16659 (whole entry, looked up): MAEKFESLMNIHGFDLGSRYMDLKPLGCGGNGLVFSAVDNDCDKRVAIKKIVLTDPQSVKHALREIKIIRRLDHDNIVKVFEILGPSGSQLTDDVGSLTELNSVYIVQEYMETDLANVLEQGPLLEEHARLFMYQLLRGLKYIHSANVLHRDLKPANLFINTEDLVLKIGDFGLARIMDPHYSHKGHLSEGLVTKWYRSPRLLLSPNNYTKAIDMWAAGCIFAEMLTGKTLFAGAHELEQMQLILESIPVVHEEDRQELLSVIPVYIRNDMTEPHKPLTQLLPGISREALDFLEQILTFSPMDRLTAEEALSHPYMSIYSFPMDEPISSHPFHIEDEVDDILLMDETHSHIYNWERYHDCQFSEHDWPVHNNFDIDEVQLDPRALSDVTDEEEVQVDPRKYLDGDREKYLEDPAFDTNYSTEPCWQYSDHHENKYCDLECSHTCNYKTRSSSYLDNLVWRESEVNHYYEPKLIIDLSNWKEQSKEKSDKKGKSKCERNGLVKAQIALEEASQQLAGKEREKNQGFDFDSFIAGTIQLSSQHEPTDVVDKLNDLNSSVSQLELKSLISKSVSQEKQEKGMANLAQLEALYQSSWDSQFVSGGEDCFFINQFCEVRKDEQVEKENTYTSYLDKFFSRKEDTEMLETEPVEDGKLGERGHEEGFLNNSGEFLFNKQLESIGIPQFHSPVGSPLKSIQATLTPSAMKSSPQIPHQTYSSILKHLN
Sequence of UniProt O43683 (whole entry, looked up): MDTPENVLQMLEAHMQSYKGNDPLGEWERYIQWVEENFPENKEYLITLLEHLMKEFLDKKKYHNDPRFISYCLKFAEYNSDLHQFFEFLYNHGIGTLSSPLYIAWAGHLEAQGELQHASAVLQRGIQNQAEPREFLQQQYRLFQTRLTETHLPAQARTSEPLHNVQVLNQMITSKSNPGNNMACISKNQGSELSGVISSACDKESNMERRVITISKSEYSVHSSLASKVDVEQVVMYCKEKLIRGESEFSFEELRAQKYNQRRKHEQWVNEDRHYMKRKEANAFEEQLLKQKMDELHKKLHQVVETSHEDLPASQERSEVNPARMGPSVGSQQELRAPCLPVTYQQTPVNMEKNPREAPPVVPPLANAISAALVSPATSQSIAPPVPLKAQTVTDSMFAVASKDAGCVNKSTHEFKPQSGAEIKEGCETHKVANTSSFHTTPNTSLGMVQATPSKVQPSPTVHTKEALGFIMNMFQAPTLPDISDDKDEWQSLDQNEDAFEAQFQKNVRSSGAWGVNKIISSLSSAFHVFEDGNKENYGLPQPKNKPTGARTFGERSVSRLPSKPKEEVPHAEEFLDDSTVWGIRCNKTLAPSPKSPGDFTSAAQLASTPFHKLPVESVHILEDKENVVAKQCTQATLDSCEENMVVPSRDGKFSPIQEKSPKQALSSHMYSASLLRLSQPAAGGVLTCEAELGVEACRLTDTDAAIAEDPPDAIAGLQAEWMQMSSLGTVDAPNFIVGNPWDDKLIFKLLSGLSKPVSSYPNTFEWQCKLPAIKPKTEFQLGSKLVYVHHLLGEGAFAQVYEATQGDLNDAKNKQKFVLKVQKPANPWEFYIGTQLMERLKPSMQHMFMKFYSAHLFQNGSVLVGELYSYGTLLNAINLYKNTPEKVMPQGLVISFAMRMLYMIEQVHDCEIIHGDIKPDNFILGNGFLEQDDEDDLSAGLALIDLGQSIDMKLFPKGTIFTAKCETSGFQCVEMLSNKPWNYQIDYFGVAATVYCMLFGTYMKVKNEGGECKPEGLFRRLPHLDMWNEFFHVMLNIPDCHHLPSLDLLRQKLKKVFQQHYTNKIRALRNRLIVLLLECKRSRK

Study 1
SMILES: O=C1CCc2cc(Nc3cc(OC4CCOCC4)c([N+](=O)[O-])cc3Cl)ccc2N1
Method: competition with immobilised ligand
Concentration: 1 µM
target | assay | remaining binding [%]
BUB1 (Homo sapiens, UniProt O43683) | cell-free assay | 89
NEK1 (Homo sapiens, UniProt Q96PY6) | binding | 40
PNCK (Homo sapiens, UniProt Q6P2M8) | cell-free assay | 68
PTK2B (Homo sapiens, UniProt Q14289) | cell-free assay | 83
EGFR (Homo sapiens, UniProt P00533, G719C) | cell-free assay | 100
CSNK1G1 (Homo sapiens, UniProt Q9HCP0) | cell-free assay | 97
PIK3CA (Homo sapiens, UniProt P42336, H1047L) | cell-free assay | 78
MAPK6 (Homo sapiens, UniProt Q16659) | cell-free assay | 100
MAPK4 (Homo sapiens, UniProt P31152) | cell-free assay | 100

Study 2
Cell line: HaCaT
Concentration: 100 µM
Time: 36 h
Compound | viability
N=c1ccn2c(n1)O[C@H]1[C@H](O)[C@@H](CO)O[C@H]12 | 41.6%
C[C@H](CS)C(=O)N1CCC[C@H]1C(=O)O | 87.2%
CO[C@H]1/C=C/O[C@@]2(C)Oc3c(C)c(O)c4c(c3C2=O)C2=NC3(CCN(CC(C)C)CC3)NC2=C(NC(=O)/C(C)=C\C=C\[C@H](C)[C@H](O)[C@@H](C)[C@@H](O)[C@@H](C)[C@H](OC(C)=O)[C@@H]1C)C4=O | 61.5%
CCN1CCN(c2cc3c(cc2F)c(=O)c(C(=O)O)cn3C2CC2)CC1 | 86.8%
CC(c1cc2ccccc2s1)N(O)C(N)=O (stereo not shown) | 81.5%
CN1C(=O)OC(C)(C)C1=O | 96.1%
OC[C@H]1O[C@@H](c2ccc(F)c(Cc3cc4ccccc4s3)c2)[C@H](O)[C@@H](O)[C@@H]1O | 70.2%
CC(=O)Oc1cccc2c1C(=O)c1c(OC(C)=O)cc(C(=O)O)cc1C2=O | 49.6%
CC(=O)OCC[N+](C)(C)C | 86.7%
Cc1cccn2c(=O)c(-c3nnn[nH]3)cnc12 | 70.3%

Study 3
Target: Epidermal growth factor receptor (EGFR, Homo sapiens, UniProt P00533)
Effect on: enzyme activity
Mode: inhibitor
Concentration: 0.5 µM
Baseline: control
Compound | remaining activity [%]
COc1ccc(C(=O)Nc2sc3c(c2C(N)=O)CCCC3)cc1OC | 99.9
Nc1ncnc2n[nH]c(Nc3ccc(F)cc3)c12 | 100
NCCNc1ncc(C(N)=O)c(Nc2cccc(C(F)(F)F)c2)n1 | 87.9
O=C1NC(=O)C(c2cn(CCCn3ccnc3)c3ccccc23)=C1Nc1ccccc1 | 95.1
COc1ccc(OC)c2c(=S)c3ccccc3[nH]c12 | 91
Cc1nc(-c2ccccc2)c(-c2ccncc2)o1 | 89.4
Cn1sc(=O)n(Cc2ccccc2)c1=O | 105
CC(C)[C@H](CO)Nc1nc(Nc2cc(N)cc(Cl)c2)c2ncn(C(C)C)c2n1 | 93.9
Nc1[nH]nc2nc3ccccc3nc12 | 96.4
CO[C@H]1C[C@@H]2CC[C@@H](C)[C@@](O)(O2)C(=O)C(=O)N2CCCC[C@H]2C(=O)O[C@H]([C@H](C)C[C@@H]2CC[C@@H](O)[C@H](OC)C2)CC(=O)[C@H](C)/C=C(\C)[C@@H](O)[C@@H](OC)C(=O)[C@H](C)C[C@H](C)/C=C/C=C/C=C/1C | 93.3
Nc1ccc2ncnc(NCCc3ccc(Oc4ccccc4)cc3)c2c1 | 112
Cc1cccc(-c2[nH]c(C(C)(C)C)nc2-c2ccc3c(c2)OCO3)n1 | 96.4
OCC(O)CCON=C1C(c2c(O)[nH]c3ccccc23)=Nc2ccccc21 (stereo not shown) | 88.1
O=C(CCCc1ccc(-c2ccccc2F)cc1)Nc1ccc(O)cc1 | 87.9
COc1cc2nccc(Oc3ccc(NC(=S)NC(=O)c4ccccc4C)cc3)c2cc1OC | 89.7
O=c1c2ccccc2[nH]c(=S)n1CCN1CCC(=C(c2ccc(F)cc2)c2ccc(F)cc2)CC1 | 101
CCOC(=O)c1c(C)[nH]c(/C=C2\C(=O)Nc3ccccc32)c1C | 92.2
COc1cc2ncnc(Nc3ccc(Oc4ccccc4)cc3)c2cc1OC | 31.6
O=C1NC(=O)C(c2cn(CCCO)c3ncccc23)=C1c1cnccn1 | 95.9
CN(C)c1ccc(C=C2C(=O)Nc3ccccc32)cc1 | 92.1
O=C(O)c1ccc2c3c1cccc3c(=O)n1c3ccccc3nc21 | 96.5

Study 4
Structure (SMILES): c1ccc(Oc2ccc(Nc3c4c(nc5ccccc35)CCC4)cc2)cc1
cell line | assay | conditions | cytotoxicity
RAW264.7 | resazurin | 16.66 µM, 64 h | 15% and 16%
HepG2 | resazurin | 1.66 µM, 48 h | 3% and 4%
RAW264.7 | resazurin | 0.0332 µM | -5% and 6%
PMA-differentiated THP-1 macrophages |  | 0.4 µM, 64 h | -1% and 5%
J774.1 | resazurin | 1.66 µM | -6% and -2%
J774.1 | resazurin | 0.66 µM | 4% and 12%
RAW264.7 | resazurin | 0.0066 µM, 64 h | -1% and -4%
J774.1 | resazurin | 0.0332 µM | -6% and -4%
HepG2 | resazurin | 0.00332 µM, 48 h | 1% and -2%

Some of these lines once more (study 4):
cell line | assay | conditions | cytotoxicity
RAW264.7 | resazurin | 16.66 µM, 64 h | 15% and 16%
HepG2 | resazurin | 1.66 µM, 48 h | 3% and 4%
RAW264.7 | resazurin | 0.0332 µM | -5% and 6%
PMA-differentiated THP-1 macrophages |  | 0.4 µM, 64 h | -1% and 5%
J774.1 | resazurin | 1.66 µM | -6% and -2%
J774.1 | resazurin | 0.66 µM | 4% and 12%
RAW264.7 | resazurin | 0.0066 µM, 64 h | -1% and -4%
J774.1 | resazurin | 0.0332 µM | -6% and -4%
